# Results pooled from the literature.
# Every numbered part comes from another study and shows a few of its results, in no order.

# Series 1
# Target: Sal-like protein 4, full length isoform A (SALL4, Homo sapiens, UniProt Q9UJQ4, residues 1-1053)
# Sequence of UniProt Q9UJQ4 (whole entry, looked up): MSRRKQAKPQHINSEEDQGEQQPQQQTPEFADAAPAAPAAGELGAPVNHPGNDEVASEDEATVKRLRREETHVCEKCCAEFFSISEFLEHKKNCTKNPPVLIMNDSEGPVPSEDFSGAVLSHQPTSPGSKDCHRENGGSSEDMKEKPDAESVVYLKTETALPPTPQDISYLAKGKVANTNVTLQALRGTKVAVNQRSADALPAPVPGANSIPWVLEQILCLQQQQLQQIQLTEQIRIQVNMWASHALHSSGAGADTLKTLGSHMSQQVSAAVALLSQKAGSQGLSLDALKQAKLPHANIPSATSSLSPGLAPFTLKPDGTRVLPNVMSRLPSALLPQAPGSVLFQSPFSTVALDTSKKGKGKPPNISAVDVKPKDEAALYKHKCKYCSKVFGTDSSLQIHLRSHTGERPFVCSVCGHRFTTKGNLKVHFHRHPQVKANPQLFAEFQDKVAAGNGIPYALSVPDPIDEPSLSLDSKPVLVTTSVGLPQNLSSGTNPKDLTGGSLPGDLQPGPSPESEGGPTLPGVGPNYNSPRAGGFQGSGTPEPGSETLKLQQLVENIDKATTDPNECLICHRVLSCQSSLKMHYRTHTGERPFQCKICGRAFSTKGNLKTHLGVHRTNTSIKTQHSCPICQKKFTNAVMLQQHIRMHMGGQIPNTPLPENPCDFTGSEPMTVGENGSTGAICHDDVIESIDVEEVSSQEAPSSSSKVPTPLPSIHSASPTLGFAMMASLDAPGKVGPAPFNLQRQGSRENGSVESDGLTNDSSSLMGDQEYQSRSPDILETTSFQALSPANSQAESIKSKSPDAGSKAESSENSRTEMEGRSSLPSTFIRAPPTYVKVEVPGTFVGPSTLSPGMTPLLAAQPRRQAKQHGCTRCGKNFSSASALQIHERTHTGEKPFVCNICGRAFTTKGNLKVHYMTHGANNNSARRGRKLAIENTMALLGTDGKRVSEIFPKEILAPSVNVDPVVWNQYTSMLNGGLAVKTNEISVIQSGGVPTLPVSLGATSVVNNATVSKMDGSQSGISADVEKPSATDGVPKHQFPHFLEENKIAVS
# Technique: universal PBM
# Form: double-stranded DNA, one strand shown
# Sample: in vitro
# Tested at: 600 nM
# Notes: 8-mer, flanks averaged, mean of replicates
# Direction: higher = stronger binding
Oligonucleotide,E-score
AAGCCCTC,-0.222
AGGCGTAC,-0.153
AGGCAAAC,-0.0535
GCATGGAA,0.000265
ACTCCGCT,-0.212
GATGTTAA,0.141

# Series 2
# Target: RING finger protein unkempt homolog, zinc fingers 1-6, SBP tag (UNK, Homo sapiens, UniProt Q9C0B0, residues 30-357)
# Sequence of UniProt Q9C0B0 (30-357, looked up): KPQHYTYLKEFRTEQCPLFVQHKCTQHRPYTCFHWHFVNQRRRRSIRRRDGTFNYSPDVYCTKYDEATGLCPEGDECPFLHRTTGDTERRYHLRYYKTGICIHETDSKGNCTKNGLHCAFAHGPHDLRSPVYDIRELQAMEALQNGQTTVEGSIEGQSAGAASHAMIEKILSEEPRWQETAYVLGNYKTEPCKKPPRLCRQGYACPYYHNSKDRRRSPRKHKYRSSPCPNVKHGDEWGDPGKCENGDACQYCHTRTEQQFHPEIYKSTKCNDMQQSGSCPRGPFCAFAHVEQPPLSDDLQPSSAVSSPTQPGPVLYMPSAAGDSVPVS
# Technique: RNA Bind-n-Seq
# Form: RNA
# Sample: in vitro
# Tested at: 100 nM
# Notes: RNA with constant flanks, vertebrate orthologous sites, ends assumed
# Reference: input RNA pool
# Direction: higher = stronger binding
Oligonucleotide,bound/input enrichment [ratio]
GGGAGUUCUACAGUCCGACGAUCUGUUUUUUUUUGCACAUGACAGUGUUUGUAUUGAGGACCUUCCAAGGAAGAGGGGUGCUAUAGCAGUGGUGCCUGGGUGCCUGGCCUCCAGUGUCCCACCUCCUUCACCACCCCACUUGGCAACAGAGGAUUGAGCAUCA,0.283
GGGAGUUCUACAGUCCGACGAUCUUUAUUUCUUCCUUCCUUUUUUUUUUCUUUUGUUCUUUUUUUCUUUUUCUUUUUUUUAGUAGUUUGUUGUUACCCACGCCAUUUUACGUCUCCUUCACUGAAGGGCUAGAGUUUUAACUUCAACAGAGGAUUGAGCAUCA,4.4
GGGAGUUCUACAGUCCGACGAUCUUACAGUCAUUGAUGGACUCUAUUUUUUUAUUAUUACUUGGACCUUGGUCGUUUUUAUACUAGCAAAAUGUCUUGUUUAAUUUGUGUUUUUUGGGGGGAGGGAGGGAGUGAACUUGCUGACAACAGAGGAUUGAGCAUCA,2.25
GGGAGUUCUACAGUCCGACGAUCAGCAACUCAAGGAUUGAGGACUGGUUUUACAAAUAUACCAAGUAGAUAUGGAACUAAUAAUAGAAUUGGACAACCAAGACCAUGAUGGACUCUUACUUAUUUUUAUGAGGAAUAUUGACUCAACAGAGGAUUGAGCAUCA,0.482
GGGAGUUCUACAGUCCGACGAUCUGAAAUAUGUAGAAAACAAUUUUCACUGAAUUCAUUGUCAAGUUUUUCCCUAGAAUUUUUUUUUGAAUUUUUGUUUUAUACAAGCUUGCUGUGUUGGUCAUUAUUAACCCACAAUUAAGACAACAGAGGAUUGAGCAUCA,0.327
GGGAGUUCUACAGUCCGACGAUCCAGGGUGGGACCCGGGACCCGCGGCUCAGUGACCCGCUAGCCACGUCAGCCAAGCCACUUUAGGUCCAUUUUUUUAUUUUAACAGUGCUCUUCCAUCUUGUGCAUAAGCCUGAGAUUUGGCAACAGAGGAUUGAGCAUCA,2.44

# Series 3
# Target: Centromere-binding protein 1, full length, His-tagged (CBF1, Saccharomyces cerevisiae, UniProt P17106, residues 1-351)
# Sequence of UniProt P17106 (whole entry, looked up): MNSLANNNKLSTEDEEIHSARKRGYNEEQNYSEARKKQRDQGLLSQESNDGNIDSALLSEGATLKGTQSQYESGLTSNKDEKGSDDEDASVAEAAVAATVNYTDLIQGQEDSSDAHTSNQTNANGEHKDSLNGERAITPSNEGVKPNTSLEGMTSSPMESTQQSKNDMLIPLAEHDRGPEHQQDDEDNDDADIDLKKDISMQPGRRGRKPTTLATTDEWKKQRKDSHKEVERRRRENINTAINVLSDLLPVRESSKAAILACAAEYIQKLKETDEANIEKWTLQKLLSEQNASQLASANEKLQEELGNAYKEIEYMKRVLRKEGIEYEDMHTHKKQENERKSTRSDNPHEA
# Technique: competition protein-binding microarray
# Form: double-stranded DNA, one strand shown
# Sample: in vitro
# Tested at: 2 µM
# Notes: whole 60-bp probe, lowest competitor level
# With: Pho4 competitor, 0.05 µM
# Direction: higher = stronger binding
Oligonucleotide,fluorescence intensity [a.u.]
CAACAATATACCCAACACGTGGATTTGCCAGCCTGTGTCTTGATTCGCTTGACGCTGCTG,810
CTTCTGTAAATTTTTCACGTGCACTGACGCGCCCCGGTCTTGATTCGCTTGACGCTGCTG,1040
AATTTCTTCAGGACTTGCAAAAAGAATCTAACTGATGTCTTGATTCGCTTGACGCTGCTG,80.4
GATTAGTTTCAGGTACATGTGTCAAATGAGGATAAAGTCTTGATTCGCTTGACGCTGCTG,128
TCTTAATTAAAGTTTCACGGGCAATTCTAACCTTTTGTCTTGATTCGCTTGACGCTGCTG,82.7
AAGGGACGGATTCAAGCCGTGTCTGTGAGCATCCATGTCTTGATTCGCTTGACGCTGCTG,65
AGATATACACGATCGCACATGGTTCCAAGACGGTTAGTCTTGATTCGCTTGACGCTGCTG,106
GGCAAGGGTCCGTTTCGCGTGACGAATCATAGCGGGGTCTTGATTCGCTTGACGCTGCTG,129

# Single results of other studies
Substance,target,test,system,setting,how to read,quantity,value
"PhoQ, residues 284 288 289 292 302 303 TNSAEL","PhoP, residues 12 14 15 18 19 VQALL (Escherichia coli, UniProt P23836)","Sort-seq, refers to: YFP reporter",E. coli,"PhoQ-PhoP variant library, with: 10 µM Mg2+","reference: high Mg2+ state, higher = stronger signaling",fold induction,16.2

# Some of these lines once more (series 1):
Oligonucleotide,E-score
GATGTTAA,0.141
AAGCCCTC,-0.222
AGGCAAAC,-0.0535
